Results pooled from the literature.
Lines come from different studies, so protocols differ. Numbers after ± are the reported error. Converted amounts (≈) assume the structure as drawn.

Structure (SMILES) = O=c1oc2c(O)c(O)cc3c(=O)oc4c(O)c(O)cc1c4c23; assay = potentiometric titration; test system = water, extrapolated from methanol/water; setting = 25 °C; quantity = pKa2; value = 7.04
Structure (SMILES) = O=c1[nH]c(Cc2ccccn2)nc2c1cnn2C1CCOCC1; test system = male human, plasma; setting = oral, 0.5 mg, single dose; quantity = Tmax; value = 30 min
Structure (SMILES) = CC[C@H](C)CCCCC(=O)N[C@@H](CCN)C(=O)N[C@H](C(=O)N[C@@H](CCN)C(=O)N[C@H]1CCNC(=O)[C@H]([C@@H](C)O)NC(=O)[C@H](CCN)NC(=O)[C@H](CCN)NC(=O)[C@H](CC(C)C)NC(=O)[C@@H](Cc2ccccc2)NC(=O)[C@H](CCN)NC1=O)[C@@H](C)O; test system = ND4 Swiss Webster mouse, female, serum; setting = intravenous, 3 mg/kg, aqueous solution; quantity = clearance; value = 13.2 mL/min/kg
Structure (SMILES) = Cc1cc(C)nc(NC(=S)N2CCN(c3ccc(C(F)(F)F)cn3)CC2)c1; test system = aqueous buffer; setting = pH 7.4; quantity = kinetic solubility; value = 1.23 µM (≈ 0.486 µg/mL)
Structure (SMILES) = CN[C@@](C)(C[18F])C(=O)O; test system = SCID mouse MDA-MB-468 xenograft, lung; setting = 60 min, post injection; quantity = tissue uptake; value = 2 ± 0.3 %ID/g
Structure (SMILES) = COc1ccc(-c2cc(=O)c3c(OC)c(OC)c(OC)cc3o2)cc1; test system = C57BL/6 mouse, male, plasma; setting = oral, 1% w/w in diet, 6 weeks, orange peel extract diet; scale = relative to: content in orange peel; quantity = tissue to peel content ratio; value = 0.046%
Structure (SMILES) = CC(C)C(=O)OC[C@H]1O[C@@H](n2ccc(NO)nc2=O)[C@H](O)[C@@H]1O; test system = rat blood dialysate; setting = 5 ng/mL, 4 weeks, -20 °C, long-term storage, together with: NHC 25 ng/mL; quantity = remaining compound; value = 107.2 ± 0.74%
Structure (SMILES) = CC(C)C[C@H](NC(=O)[C@H](CCC(=O)O)NC(=O)[C@H](CCC(=O)O)NC(=O)[C@H](CC(=O)O)NC(=O)[C@H](CCC(=O)O)NC(=O)[C@H](CCC(=O)O)NC(=O)[C@H](CCC(=O)O)NC(=O)[C@@H](N)CC(=O)O)C(=O)O; test system = rat, plasma; setting = intranasal, 5.5 mg/kg single dose, 165 min; quantity = plasma concentration; value = 21.6 ng/mL
Structure (SMILES) = COC(=O)N[C@H](C(=O)N1CCC[C@H]1C(=O)Nc1ccc([C@@H]2CC[C@@H](c3ccc(NC(=O)[C@@H]4CCCN4C(=O)[C@@H](NC(=O)OC)C(C)C)cc3)N2c2ccc(C(C)(C)C)cc2)cc1)C(C)C; test system = healthy human volunteers, plasma; setting = oral, dose not given, together with: rosuvastatin plus 2D regimen; quantity = AUC(0-24); value = 897 ng·h/mL
Structure (SMILES) = Cc1cc(Nc2ccc(C(F)(F)F)nc2)n2nc(C(C)(F)F)nc2n1; test system = rat; setting = oral, up to 750 mg/kg, GLP head-out plethysmography study; quantity = animals found dead or euthanized; value = 2 to 3 animals per group
Structure (SMILES) = [123I]c1cncc(OC[C@@H]2CCN2)c1; assay = SPECT; test system = human, cingulate gyrus; setting = intravenous bolus plus infusion, 7.6 mCi; scale = relative to: tissue over plasma; quantity = tissue/plasma ratio; value = 31.9
Structure (SMILES) = CSCC[C@@H]1NC(=O)[C@H](CC(=O)O)NC(=O)CNC(=O)[C@H](CCCNC(=N)N)NC(=O)[C@H](C)NC(=O)[C@H](CCC(=O)O)NC(=O)[C@H](CCCNC(=N)N)NC(=O)[C@@H]2CSSC[C@@H]3NC(=O)[C@H](CO)NC(=O)[C@H]([C@@H](C)O)NC(=O)[C@@H]4CCCN4C(=O)[C@H](C)NC(=O)[C@H](Cc4c[nH]c5ccccc45)NC(=O)[C@H](CC(=O)O)NC(=O)CNC(=O)[C@H](CCCNC(=N)N)NC(=O)CNC(=O)[C@H](CCC(N)=O)NC(=O)[C@@H]4CCCN4C(=O)[C@@H](NC(=O)CNC(=O)C(C)F)CSSC[C@H](NC(=O)CNC(=O)[C@H](C)NC(=O)[C@H](CC(C)C)NC(=O)[C@H](CSSC[C@@H](C(=O)NCC(N)=O)NC(=O)[C@H]([C@@H](C)O)NC(=O)[C@H](CCCNC(=N)N)NC(=O)[C@@H]4CCCN4C1=O)NC(=O)[C@H](CC(=O)O)NC(=O)[C@H](CO)NC(=O)[C@H](CC(=O)O)NC(=O)[C@H](CCC(N)=O)NC(=O)[C@H](CO)NC3=O)C(=O)N[C@@H](C(C)C)C(=O)N2 (stereo partly drawn) [fluorine-18 labelled]; test system = nude mice U-87 MG xenograft, tumor; setting = intravenous, 1 h; quantity = tissue uptake; value = 2.22 ± 0.62 %ID/g

For quick reference, copied from above:
Structure (SMILES) = CC(C)C[C@H](NC(=O)[C@H](CCC(=O)O)NC(=O)[C@H](CCC(=O)O)NC(=O)[C@H](CC(=O)O)NC(=O)[C@H](CCC(=O)O)NC(=O)[C@H](CCC(=O)O)NC(=O)[C@H](CCC(=O)O)NC(=O)[C@@H](N)CC(=O)O)C(=O)O; test system = rat, plasma; setting = intranasal, 5.5 mg/kg single dose, 165 min; quantity = plasma concentration; value = 21.6 ng/mL
Structure (SMILES) = COC(=O)N[C@H](C(=O)N1CCC[C@H]1C(=O)Nc1ccc([C@@H]2CC[C@@H](c3ccc(NC(=O)[C@@H]4CCCN4C(=O)[C@@H](NC(=O)OC)C(C)C)cc3)N2c2ccc(C(C)(C)C)cc2)cc1)C(C)C; test system = healthy human volunteers, plasma; setting = oral, dose not given, together with: rosuvastatin plus 2D regimen; quantity = AUC(0-24); value = 897 ng·h/mL
